Measurements collected from several papers.
Each line is one published result; not all experiments were run side by side. “And” joins repeats or separate records; there may be more than shown. ± gives the spread as reported.
B1: GAB1 331-530 (Homo sapiens, UniProt Q13480); sequence looked up; chain TSKLDTIPDIPPPRPPKPHPAHDRSPVETCSIPRTASDTDSSYCIPTAGMSPSRSNTISTVDLNKLRKDASSQDCYDIPRAFPSDRSSSLEGFHNHFKVKNVLTVGSVSSEELDENYVPMNPNSPPRQHSSSFTEPIQEANYVPMTPGTFDFSSFGMQVPPPAHMGFRSSPKTPPRRPVPVADCEPPPVDRNLKPDRKVK
Sequence of UniProt Q64663 (whole entry, unmodified, looked up): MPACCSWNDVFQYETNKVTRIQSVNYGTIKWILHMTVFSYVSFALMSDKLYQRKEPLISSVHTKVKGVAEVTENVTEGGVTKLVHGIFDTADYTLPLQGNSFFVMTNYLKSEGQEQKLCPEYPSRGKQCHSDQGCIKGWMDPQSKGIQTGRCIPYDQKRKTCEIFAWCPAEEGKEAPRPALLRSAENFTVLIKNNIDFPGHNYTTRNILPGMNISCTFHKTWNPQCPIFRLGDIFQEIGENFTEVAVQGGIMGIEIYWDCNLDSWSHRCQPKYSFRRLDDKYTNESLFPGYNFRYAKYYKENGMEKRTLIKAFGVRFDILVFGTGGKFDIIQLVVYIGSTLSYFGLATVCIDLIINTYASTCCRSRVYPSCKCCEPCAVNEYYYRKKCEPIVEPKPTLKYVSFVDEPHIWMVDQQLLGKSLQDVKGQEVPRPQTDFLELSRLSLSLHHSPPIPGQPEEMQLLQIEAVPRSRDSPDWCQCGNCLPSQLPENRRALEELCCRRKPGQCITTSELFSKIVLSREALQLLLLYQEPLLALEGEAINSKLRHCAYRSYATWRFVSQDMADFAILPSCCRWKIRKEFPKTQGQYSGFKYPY
Sequence of UniProt P48067 (whole entry, looked up): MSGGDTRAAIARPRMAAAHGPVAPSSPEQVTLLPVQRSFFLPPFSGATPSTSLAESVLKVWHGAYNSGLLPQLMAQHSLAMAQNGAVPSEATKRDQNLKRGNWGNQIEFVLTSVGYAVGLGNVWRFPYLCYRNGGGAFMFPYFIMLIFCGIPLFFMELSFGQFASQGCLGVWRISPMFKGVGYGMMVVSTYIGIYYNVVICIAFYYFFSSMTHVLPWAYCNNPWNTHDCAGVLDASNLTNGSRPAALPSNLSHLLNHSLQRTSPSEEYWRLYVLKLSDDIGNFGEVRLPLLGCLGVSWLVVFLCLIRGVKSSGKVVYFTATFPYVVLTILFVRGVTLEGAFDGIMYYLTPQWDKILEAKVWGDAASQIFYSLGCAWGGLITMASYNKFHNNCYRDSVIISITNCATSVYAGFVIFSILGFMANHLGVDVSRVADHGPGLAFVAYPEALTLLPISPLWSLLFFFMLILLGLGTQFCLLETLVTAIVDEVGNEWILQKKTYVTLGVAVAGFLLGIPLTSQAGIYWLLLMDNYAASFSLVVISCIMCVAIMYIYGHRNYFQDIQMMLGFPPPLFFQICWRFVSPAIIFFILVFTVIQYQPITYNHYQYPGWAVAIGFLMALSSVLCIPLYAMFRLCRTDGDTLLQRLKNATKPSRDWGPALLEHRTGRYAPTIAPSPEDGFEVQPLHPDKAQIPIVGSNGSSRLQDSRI
Sequence of UniProt P54609 (whole entry, unmodified, looked up): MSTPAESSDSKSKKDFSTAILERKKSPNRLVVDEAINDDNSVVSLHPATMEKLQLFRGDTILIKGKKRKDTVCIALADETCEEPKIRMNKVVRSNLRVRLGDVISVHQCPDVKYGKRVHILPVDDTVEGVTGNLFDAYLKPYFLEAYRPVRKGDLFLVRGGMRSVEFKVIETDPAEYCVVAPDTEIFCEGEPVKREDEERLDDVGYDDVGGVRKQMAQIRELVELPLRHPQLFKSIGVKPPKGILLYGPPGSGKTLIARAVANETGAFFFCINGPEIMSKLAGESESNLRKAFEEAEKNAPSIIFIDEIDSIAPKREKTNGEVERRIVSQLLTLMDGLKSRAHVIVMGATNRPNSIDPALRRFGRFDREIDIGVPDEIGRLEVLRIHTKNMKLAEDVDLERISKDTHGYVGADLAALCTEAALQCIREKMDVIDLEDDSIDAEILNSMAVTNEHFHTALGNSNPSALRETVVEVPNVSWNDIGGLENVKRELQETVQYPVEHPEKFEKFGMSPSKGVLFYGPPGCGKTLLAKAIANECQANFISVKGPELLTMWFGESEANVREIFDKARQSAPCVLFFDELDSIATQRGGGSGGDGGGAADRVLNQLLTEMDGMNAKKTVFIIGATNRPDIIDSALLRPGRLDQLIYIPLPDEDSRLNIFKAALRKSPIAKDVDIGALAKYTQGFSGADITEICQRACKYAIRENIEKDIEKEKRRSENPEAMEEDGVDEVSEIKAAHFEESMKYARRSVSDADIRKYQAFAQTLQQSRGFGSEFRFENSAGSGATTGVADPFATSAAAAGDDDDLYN
Sequence of UniProt P53618 (whole entry, looked up): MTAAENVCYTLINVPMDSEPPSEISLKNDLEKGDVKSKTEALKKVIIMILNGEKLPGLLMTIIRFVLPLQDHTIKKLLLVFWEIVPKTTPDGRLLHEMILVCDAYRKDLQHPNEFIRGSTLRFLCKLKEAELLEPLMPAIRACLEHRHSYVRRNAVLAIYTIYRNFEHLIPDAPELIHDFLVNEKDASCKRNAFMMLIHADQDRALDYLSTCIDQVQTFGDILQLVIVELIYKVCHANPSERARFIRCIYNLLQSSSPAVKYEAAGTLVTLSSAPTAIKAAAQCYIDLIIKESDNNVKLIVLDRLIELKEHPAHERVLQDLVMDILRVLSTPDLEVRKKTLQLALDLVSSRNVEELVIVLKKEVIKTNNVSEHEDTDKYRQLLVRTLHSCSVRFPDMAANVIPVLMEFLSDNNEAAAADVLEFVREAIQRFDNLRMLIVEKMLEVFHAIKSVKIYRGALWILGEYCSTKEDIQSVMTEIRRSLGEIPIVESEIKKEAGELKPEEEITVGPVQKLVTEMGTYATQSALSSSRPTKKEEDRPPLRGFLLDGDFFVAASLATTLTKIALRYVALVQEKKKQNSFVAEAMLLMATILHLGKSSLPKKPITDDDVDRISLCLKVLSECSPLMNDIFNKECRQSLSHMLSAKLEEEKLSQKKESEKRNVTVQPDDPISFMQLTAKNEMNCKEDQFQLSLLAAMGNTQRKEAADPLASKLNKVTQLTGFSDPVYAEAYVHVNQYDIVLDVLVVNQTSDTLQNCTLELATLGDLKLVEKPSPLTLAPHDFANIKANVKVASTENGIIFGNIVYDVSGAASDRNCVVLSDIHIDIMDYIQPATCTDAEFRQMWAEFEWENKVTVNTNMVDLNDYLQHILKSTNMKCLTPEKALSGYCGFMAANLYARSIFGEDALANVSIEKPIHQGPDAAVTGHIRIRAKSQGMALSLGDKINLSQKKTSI
Sequence of UniProt P16157 (whole entry, looked up): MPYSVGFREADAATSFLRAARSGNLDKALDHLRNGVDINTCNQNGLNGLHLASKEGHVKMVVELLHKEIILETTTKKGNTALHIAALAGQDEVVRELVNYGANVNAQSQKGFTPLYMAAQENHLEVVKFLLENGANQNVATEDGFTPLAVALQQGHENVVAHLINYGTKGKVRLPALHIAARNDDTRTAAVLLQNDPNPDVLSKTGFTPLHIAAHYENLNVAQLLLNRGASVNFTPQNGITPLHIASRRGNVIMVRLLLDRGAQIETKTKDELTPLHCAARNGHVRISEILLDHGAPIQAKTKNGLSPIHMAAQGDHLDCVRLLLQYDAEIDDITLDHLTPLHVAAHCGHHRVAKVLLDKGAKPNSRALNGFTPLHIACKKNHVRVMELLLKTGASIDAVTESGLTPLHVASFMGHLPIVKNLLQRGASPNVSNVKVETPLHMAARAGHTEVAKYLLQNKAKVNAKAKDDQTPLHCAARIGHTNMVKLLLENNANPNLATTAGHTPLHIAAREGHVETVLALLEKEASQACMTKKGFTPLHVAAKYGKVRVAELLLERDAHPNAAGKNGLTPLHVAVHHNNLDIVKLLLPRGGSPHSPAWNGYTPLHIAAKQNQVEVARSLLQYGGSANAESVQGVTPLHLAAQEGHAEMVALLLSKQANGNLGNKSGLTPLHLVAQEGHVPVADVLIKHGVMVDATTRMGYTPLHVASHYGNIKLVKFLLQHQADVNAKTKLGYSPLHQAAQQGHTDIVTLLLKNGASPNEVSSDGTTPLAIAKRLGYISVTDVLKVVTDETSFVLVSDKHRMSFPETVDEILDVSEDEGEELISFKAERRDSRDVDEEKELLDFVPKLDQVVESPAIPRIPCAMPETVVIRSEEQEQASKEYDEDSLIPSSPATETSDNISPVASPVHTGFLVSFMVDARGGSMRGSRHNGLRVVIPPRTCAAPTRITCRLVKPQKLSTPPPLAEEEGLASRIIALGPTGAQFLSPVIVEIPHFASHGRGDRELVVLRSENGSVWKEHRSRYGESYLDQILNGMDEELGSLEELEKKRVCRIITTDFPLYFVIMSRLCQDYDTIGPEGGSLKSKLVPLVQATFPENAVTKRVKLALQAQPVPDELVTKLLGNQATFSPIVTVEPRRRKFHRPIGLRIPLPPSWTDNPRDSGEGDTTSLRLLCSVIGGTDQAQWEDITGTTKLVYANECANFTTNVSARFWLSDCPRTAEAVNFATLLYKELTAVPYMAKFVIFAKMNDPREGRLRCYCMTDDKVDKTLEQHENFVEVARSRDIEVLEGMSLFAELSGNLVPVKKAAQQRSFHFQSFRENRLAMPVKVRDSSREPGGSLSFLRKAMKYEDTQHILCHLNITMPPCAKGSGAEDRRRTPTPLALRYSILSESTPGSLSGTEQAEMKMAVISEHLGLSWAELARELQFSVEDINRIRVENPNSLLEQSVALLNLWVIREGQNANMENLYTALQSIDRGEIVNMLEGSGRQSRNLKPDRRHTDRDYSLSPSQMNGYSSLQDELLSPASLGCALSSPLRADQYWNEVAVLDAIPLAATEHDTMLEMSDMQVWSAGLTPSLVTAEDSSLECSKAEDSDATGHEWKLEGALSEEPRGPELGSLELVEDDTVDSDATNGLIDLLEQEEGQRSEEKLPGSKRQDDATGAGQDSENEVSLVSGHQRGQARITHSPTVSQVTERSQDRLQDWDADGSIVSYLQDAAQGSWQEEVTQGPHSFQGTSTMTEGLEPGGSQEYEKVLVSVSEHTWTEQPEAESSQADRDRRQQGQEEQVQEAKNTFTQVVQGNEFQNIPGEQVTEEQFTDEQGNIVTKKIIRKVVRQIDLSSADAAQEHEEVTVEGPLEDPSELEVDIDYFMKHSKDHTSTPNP

`PUX5 fragment (Arabidopsis thaliana)` gave a ΔH of 1.1 ± 0.0239 kcal/mol (CDC48A 1-463 (Arabidopsis thaliana, UniProt P54609); ITC).
`EPHA2 fragment, auto-phosphorylated (Homo sapiens)` has a kon of 27000 M⁻¹ s⁻¹ (EFNA1 (Homo sapiens, UniProt P20827); BLI; apparent).
`SERPINF2 (Homo sapiens, UniProt P08697)`: cross-linked residues “K468 to K81” (UBTFL1 (Homo sapiens, UniProt P0CB47); cross-linking MS; with: DSSO).
`methyl-β-cyclodextrin` — result for “glycine uptake rate”: 76.2 a.u. and 65.5 a.u. and 76.4 a.u. and 66.1 a.u. (SLC6A9 (Homo sapiens, UniProt P48067); transport activity, [3H]glycine uptake; 2.5 mg/mL, 1 min, with: glycine 900 µM; higher = more transport).
For `BzATP`, the normalized current was 0.92 and 0.869 and 0.93 (P2X purinoceptor 7 (P2rx7, Rattus norvegicus, UniProt Q64663, I214A/R125A); ion current, agonist, two-electrode voltage clamp; Xenopus laevis oocytes; 300 µM; relative to: highest concentration response).
`NGVTKTILEARARVEKDYGK (gld-3 860-879 P869A (Caenorhabditis elegans, UniProt Q95ZK7); sequence looked up)` has a competition of 2 fold (fbf-2 164-575 (Caenorhabditis elegans, UniProt Q09312); fluorescence polarisation; peptide; relative to: wild-type GLD-3, higher = weaker competition).
With `Peginesatide` the phosphorylation level was 49.9 fold (UT7/EPO; tyrosine phosphorylation, LC-MS/MS phosphoproteomics, GluC, measured: SH2B3 tyrosine 572; 10 nM, 15 min, with: 10 U/mL EPO; relative to: vehicle).
`PDE4D3/GFP (Homo sapiens)` gave a relative binding of 4.01 (AKAP6 P1400S (Homo sapiens, UniProt Q13023-1); co-IP; HEK293; not purified, with: forskolin, IBMX; relative to: mAKAP precipitated, higher = more PDE4D3 bound).
`B1 (GAB1 331-530)` gave a binding enthalpy of -34.3 kcal/mol (GRB2 (Homo sapiens, UniProt P62993); ITC).
The MIC of `colistin` is reported as 1 µg/mL (Pseudomonas aeruginosa; broth microdilution; clinical isolate RKI-No_493/15).
Under “rate constant k-1”, `11-deoxycorticosterone` is recorded as 514 min⁻¹ (CYP11B2 (human); substrate binding, stopped-flow kinetic modelling; 4-state branched induced-fit model, with: no adrenodoxin).
`GLP-1/MC4 receptor agonist chimeric peptide, D-Ser position 2` gave an EC50 of 14.7 nM (MC1R (Homo sapiens, UniProt Q01726); cAMP, agonist, HTRF; recombinant).
`PSPHGTRRHLPSPP (SOS1 proline-rich peptide, 1264-1277)`: “chemical shift perturbation” 0.14 ppm (GRB2 1-58 (Homo sapiens, UniProt P62993); NMR titration; peptide).
`FGA (Homo sapiens, UniProt P02671)`: cross-linked residues “K440 to K118” (STK38 (Homo sapiens, UniProt Q15208); cross-linking MS; with: DSSO).
Under “normalised SPR binding response”, `GSGAGKETRV` is recorded as 137 normalised RU (human SCRIB PDZ3-4 tandem (MBP fusion); surface plasmon resonance; peptide; concentration not given; higher = stronger binding).
For `SPTA1/SPTB tetramer (Homo sapiens)`, the binding inhibition was greater than 95% (ANK1 (Homo sapiens, UniProt P16157); radioligand binding; inside-out vesicles; 2.4 µM; higher = stronger inhibition).
`FGG (Homo sapiens, UniProt P02679)` — result for cross-linked residues: “K114 to K86” (PCDH19 (Homo sapiens, UniProt Q8TAB3); cross-linking MS; with: DSSO).
`KRT18 (Homo sapiens, UniProt P05783)` — result for cross-linked residues: “K407 to K603” (COPB1 (Homo sapiens, UniProt P53618); cross-linking MS; cells; with: iqPIR).

Excerpt of the above:
`methyl-β-cyclodextrin` — result for “glycine uptake rate”: 76.2 a.u. and 65.5 a.u. and 76.4 a.u. and 66.1 a.u. (SLC6A9 (Homo sapiens, UniProt P48067); transport activity, [3H]glycine uptake; 2.5 mg/mL, 1 min, with: glycine 900 µM; higher = more transport).
`NGVTKTILEARARVEKDYGK (gld-3 860-879 P869A (Caenorhabditis elegans, UniProt Q95ZK7); sequence looked up)` has a competition of 2 fold (fbf-2 164-575 (Caenorhabditis elegans, UniProt Q09312); fluorescence polarisation; peptide; relative to: wild-type GLD-3, higher = weaker competition).
